Assay results from different studies.
Lines come from different studies, so protocols differ. ± gives the spread as reported.

Compound = O=C(/C=C/c1ccc(O)c(O)c1/C=C/c1ccc(O)c(O)c1)O[C@H](Cc1ccc(O)c(O)c1)C(=O)O; test system = isolated myocardial tissue; conditions = 1 µM; endpoint = LVDP; result = 51.5 mmHg
Compound = COC(=O)CCc1ccc(OCC(O)CNC(C)C)cc1 (stereo not drawn); test system = healthy male humans; conditions = concentration not given, 5 min, added: saline; endpoint = systolic blood pressure; result = 108 mm Hg
Compound = NC(=O)c1cnc2[nH]ccc2c1N[C@@H]1[C@@H]2CC3C[C@H]1C[C@@](O)(C3)C2; assay = flow cytometry, refers to: CD4+ naive T cells; test system = Japanese healthy subjects, peripheral blood; conditions = oral, 100 mg twice daily, day 7; endpoint = change from baseline; result = -3.42%
Compound = OC(CCN1CCCCC1)(c1ccccc1)C1CC2C=CC1C2 (stereo not drawn); assay = resting-state EEG; test system = healthy elderly humans; conditions = oral, 4 mg, eyes open, LS mean; how to read = reference: baseline; endpoint = change, Theta power, EEG Pz-O2; result = 0.9%
Compound = C=CCn1c(=O)c2cnc(Nc3ccc(N4CCN(C)CC4)cc3)nc2n1-c1ccc2c(n1)[C@@](O)(CC)CC2; test system = COLO 205 xenograft, BALB/c nude mice; conditions = oral, 60 mg/kg once daily x 22, day 21; endpoint = tumour volume difference; result = 830 ± 40.3 mm3
Compound = [Cl-].[Cl-].[Pt+2].[Ru+2].c1ccc(-c2nc3cc4ccccc4cc3nc2-c2ccccn2)nc1.c1cnc2c(c1)ccc1cccnc12.c1cnc2c(c1)ccc1cccnc12; assay = chloride substitution, UV-vis kinetics; test system = aqueous buffer; conditions = concentration not given, pH 7.2, first substitution step, added: L-methionine; endpoint = negative activation entropy; result = 171 ± 5 J/(mol·K)
Compound = COc1cc2cc(-c3ccc(CC(=O)Nc4cc(C(C)(C)C(F)(F)F)no4)cn3)cnc2cc1OC; assay = RECIST v1.1; test system = human RET-altered solid tumours; conditions = 75 mg, phase I pooled; endpoint = best overall response PD; result = 26%
Compound = CN(C(=O)n1cnc(-c2ccc[n+]([O-])c2)c1)C1CCCCC1; assay = refers to: LEA; test system = human, plasma; conditions = 5 mg once daily, day 10; endpoint = AUC(0-tau); result = 143 ng·h/mL
Compound = CN(C)C(=O)c1cc2cnc(Nc3ccc(N4CCNCC4)cn3)nc2n1C1CCCC1; assay = RNA-seq GSEA, refers to: HALLMARK_HYPOXIA; test system = MB002 tumour; conditions = concentration not given, in vivo; how to read = reference: vehicle, direction not given; endpoint = GSEA enrichment score; result = 0.267
Compound = CC(C)NCC(O)c1ccc(O)c(O)c1 (stereo not drawn); test system = ventricular cardiomyocytes, C57BL/6 mouse; conditions = dose not given, 0.7 s; endpoint = sarcomere length; result = 1.72 µm
Compound = CC[C@H](C)[C@H](NC(=O)[C@H](Cc1ccccc1)NC(=O)[C@H](CC(=O)O)NC(=O)[C@H](CCCNC(=N)N)NC(=O)[C@H](C)NC(=O)[C@H](C)NC(=O)[C@H](CC(C)C)NC(=O)[C@H](CC(N)=O)NC(=O)[C@H](CC(=O)O)NC(=O)[C@H](CC(C)C)NC(=O)[C@@H](NC(=O)[C@@H](NC(=O)[C@H](CC(N)=O)NC(=O)[C@H](CCSC)NC(=O)[C@H](CCC(=O)O)NC(=O)[C@H](CC(=O)O)NC(=O)[C@H](CO)NC(=O)[C@H](Cc1ccccc1)NC(=O)[C@H](CO)NC(=O)CNC(=O)[C@H](CC(=O)O)NC(=O)CNC(=O)[C@@H](N)Cc1c[nH]cn1)[C@@H](C)O)[C@@H](C)CC)C(=O)N[C@@H](CC(N)=O)C(=O)N[C@@H](Cc1c[nH]c2ccccc12)C(=O)N[C@@H](CC(C)C)C(=O)N[C@H](C(=O)N[C@@H](CCC(N)=O)C(=O)N[C@H](C(=O)N[C@@H](CCCCN)C(=O)N[C@H](C(=O)N[C@H](C(=O)N[C@@H](CC(=O)O)C(=O)O)[C@@H](C)O)[C@@H](C)CC)[C@@H](C)O)[C@@H](C)CC; test system = mouse; conditions = twice daily, dose not given, 2 weeks; how to read = reference: vehicle; endpoint = small intestine weight increase; result = 35%
Compound = CN(C)C(=O)Oc1cccc([N+](C)(C)C)c1; assay = neuromuscular block reversal; test system = rat; conditions = dose not given, 9.5 (unit not given), added: cisatracurium; how to read = reference: T1 twitch; endpoint = train-of-four ratio; result = 73
Compound = O=C1CCc2ccc(OCCCCN3CCN(c4cccc(Cl)c4Cl)CC3)cc2N1; test system = patients CYP2D6 NM; conditions = 12 months; endpoint = stopping or switching; result = 51%
Compound = Cc1ccc(C(=O)Nc2ccnc(S(N)(=O)=O)c2)c(N2CCCC(F)(F)CC2)n1; test system = Macaca mulatta, C-nociceptors; conditions = intravenous, 0.6 mg/kg bolus then 0.8 mg/kg/h, 120 min; endpoint = conduction velocity; result = 102 % baseline
Compound = CC(C)[C@H](C(=O)Nc1ccc(C(=O)NO)cc1)c1ccccc1; assay = MRI volumetry; test system = human, right IAC schwannoma; conditions = dose not given, day 2790 post-treatment; endpoint = tumour volume; result = 0.0665 cm³
Compound = c1ccc(-c2n[nH]cc2-c2ccnc3ccccc23)nc1; assay = kinase binding, competitor, MIB/MS competition, refers to: AKL1; test system = Candida albicans cell lysate; conditions = 100 nM; how to read = reference: DMSO; endpoint = log2 fold change; result = 1.52
Compound = CN[C@@H]1COc2c(S(=O)(=O)NC(=O)Nc3c4c(cc5c3CCC5)CCC4)cnn2C1; assay = refers to: IL-1β; test system = human participants, whole blood ex vivo; conditions = 900 mg twice daily, multiple doses, 48 h, added: LPS/ATP; how to read = reference: baseline; endpoint = inhibition; result = 99.5%
Compound = CS(=O)(=O)CCNCc1ccc(-c2ccc3ncnc(Nc4ccc(OCc5cccc(F)c5)c(Cl)c4)c3c2)o1; assay = tumour growth; test system = HT115, mouse, subcutaneous HT115 xenograft; conditions = oral, 21 days daily, colon cancer; endpoint = ED50; result = 52.7 mg/kg
